# Measured values of several laboratories.
# Each numbered part is a random draw from the data of one study; scales do not carry over between parts. Changes are numbered by the printed parent chain.

# Set 1
# Target: Histone acetyltransferase KAT6A, winged helix 2, GST fusion (KAT6A, Homo sapiens, UniProt Q92794, residues 85-181)
# Technique: protein binding microarray
# Form: double-stranded DNA, one strand shown
# Matrix: in vitro
# Tested at: not given
# Notes: 8-mer, flanks averaged, mean of 2 arrays, mostly near background
# Relative to: not given
# Direction: higher = stronger binding
# Target sequence (chain): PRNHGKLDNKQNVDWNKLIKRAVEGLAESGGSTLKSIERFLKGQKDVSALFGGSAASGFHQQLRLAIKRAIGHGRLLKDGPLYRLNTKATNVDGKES
Strand,E-score
AGCTTACG,-0.0593
ACATATAC,-0.1
CCGGAGGA,0.0349
TTTAGAAA,0.112
TAATAATA,0.142
GTCCCCGA,0.0557
GTTAGGCA,-0.055
CGCTAGAA,-0.0143

# Set 2
# Target: Interferon regulatory factor 7, full length, phosphomimetic (IRF7, Homo sapiens, UniProt Q92985, residues 1-503, S471D/S472D/S475D/S476D/S477D/S483D/S484D/S487D)
# Chain of UniProt Q92985 (whole entry, unmodified, looked up): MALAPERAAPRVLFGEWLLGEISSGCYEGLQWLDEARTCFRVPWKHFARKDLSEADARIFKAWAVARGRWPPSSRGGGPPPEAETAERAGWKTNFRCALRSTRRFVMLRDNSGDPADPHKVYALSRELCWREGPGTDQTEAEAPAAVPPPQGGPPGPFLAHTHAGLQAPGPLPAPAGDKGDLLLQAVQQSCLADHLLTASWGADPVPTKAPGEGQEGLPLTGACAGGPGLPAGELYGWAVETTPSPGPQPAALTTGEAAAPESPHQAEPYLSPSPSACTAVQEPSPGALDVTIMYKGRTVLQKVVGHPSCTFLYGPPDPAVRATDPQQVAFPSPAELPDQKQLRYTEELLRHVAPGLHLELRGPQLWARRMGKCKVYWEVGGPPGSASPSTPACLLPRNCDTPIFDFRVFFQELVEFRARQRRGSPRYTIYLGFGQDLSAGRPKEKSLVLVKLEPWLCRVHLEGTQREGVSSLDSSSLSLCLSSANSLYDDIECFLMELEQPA
# Technique: protein-binding microarray
# Form: double-stranded DNA, one strand shown
# Matrix: in vitro
# Tested at: 2200 nM top
# Notes: 60-bp whole probe
# Together with: salmon DNA 0.4 mg/ml
# Relative to: random background probes
# Direction: higher = stronger binding
Strand,fitted relative affinity [z-score]
GCCTAGCACGACGGTCTCCTTTCCCTGACGTGCTAGGTCTTGATTCGCTTGACGCTGCTG,1.43
GCCTAGCACTCATACATGTGTTTAAGACTGTGCTAGGTCTTGATTCGCTTGACGCTGCTG,0.606
GCCTAGCACATAGGTCTCGGACTGGGTTAGTGCTAGGTCTTGATTCGCTTGACGCTGCTG,-0.0781
GCCTAGCACGACGGACTGGGGACGGGGGACGTGCTAGTCTTGATTCGCTTGACGCTGCTG,0.328

# Set 3
# Target: CCNB1, cyclin fold, Cln2 fusion (human)
# Technique: yeast growth competition, sequencing
# Matrix: yeast
# Notes: weak parent motif
# Relative to: not given
# Direction: higher = stronger binding
# Starting sequence: GMNC docking peptide (human); KNAKRNLSSEFAN
Substitution,normalised enrichment score
KNCKRNLSSEFAN [A3C],0.252
KNAKRNLSSEFGN [A12G],-0.0727
KNATRNLSSEFAN [K4T],0.0665
KNAKRNLSSETAN [F11T],0.174
KNAKRNLSSEFNN [A12N],0.409
KNMKRNLSSEFAN [A3M],0.384
KNAKRNLSSEFTN [A12T],0.561
KDAKRNLSSEFAN [N2D],0.0906

# Single results of other studies
Substance,target,test,test system,conditions,how to read,quantity,result
"PhoQ, residues 284 288 289 292 302 303 AGGCYF","PhoP, residues 12 14 15 18 19 IQSYL (Escherichia coli, UniProt P23836)","Sort-seq, item: YFP reporter",E. coli,"PhoQ-PhoP variant library, together with: 10 µM Mg2+","relative to: high Mg2+ state, higher = stronger signaling",fold induction,14.6

# A few entries again (set 3):
Substitution,normalised enrichment score
KNMKRNLSSEFAN [A3M],0.384
KNCKRNLSSEFAN [A3C],0.252
KNAKRNLSSEFGN [A12G],-0.0727
